Measurements of several laboratories.
Compare with care: the assays were run in different laboratories. Several values in a cell are separate wells, animals, samples, runs or records. Numbers after ± are the reported error.
EPHX2: Bifunctional epoxide hydrolase 2 (EPHX2, Homo sapiens, UniProt P34913)

| SMILES | target | assay | test system | conditions | how to read | quantity | value |
| --- | --- | --- | --- | --- | --- | --- | --- |
| N=C(N)NCCC[C@H](NC(=O)[C@H](CC(=O)O)NC(=O)[C@@H]1CSCCCC(=O)NCC(=O)N[C@@H](Cc2c[nH]cn2)C(=O)N[C@H](Cc2ccccc2)C(=O)N[C@@H](CCCNC(=N)N)C(=O)N[C@@H](Cc2c[nH]c3ccccc23)C(=O)N1)C(=O)N[C@@H](Cc1ccccc1)C(=O)NCC(N)=O | Melanocortin receptor 5 (MC5R, Homo sapiens, UniProt P33032) | cAMP accumulation, agonist | HEK293 expressing MC5R | 10 µM | reference: MT-II | activation | 91% |
| CCC(NC(=O)C(CC(C)C)NC(=O)CCc1ccccc1)C(=O)C(=O)NCc1cc(F)cc(OC)c1 (stereo not shown) | Calpain-1 catalytic subunit (Capn1, Mus musculus, UniProt O35350) | brain enzyme activity | mouse, controlled cortical impact TBI, brain | intraperitoneal, 0.1 or 1.0 mg/kg, 24 h after TBI | – | enzyme activity | no effect |
| O=C(Nc1ccc(C(=O)Nc2ccc(C(=O)Nc3ccc(S(=O)(=O)O)c4cc(S(=O)(=O)O)cc(S(=O)(=O)O)c34)cc2)cc1)Nc1ccc(C(=O)Nc2ccc(C(=O)Nc3ccc(S(=O)(=O)O)c4cc(S(=O)(=O)O)cc(S(=O)(=O)O)c34)cc2)cc1 | Neutrophil elastase (ELANE, Homo sapiens, UniProt P08246) | substrate S-1384 hydrolysis | – | pH 7.4, 37 °C, enzyme 200 nM | – | Km | 262 ± 33.4 µM |
| CC12CC3CC(C)(C1)CC(NC(=O)Nc1ccc(C(=O)N4CCCC(C(N)=O)C4)cc1)(C3)C2 (stereo not shown) | EPHX2 | – | – | – | – | lipophilic ligand efficiency | 7.08 |
| [3H]CC([3H])C(=O)NCc1cc(C(=O)NCCN2CCC(N3CCC(n4c(=O)[nH]c5ccccc54)CC3)CC2)cc(C(=O)NCCN2CCN(CCCCC3CCN(CC(=O)N4c5ccccc5NC(=O)c5ccccc54)CC3)CC2)c1 (stereo not shown) | Muscarinic acetylcholine receptor M2 (CHRM2, Homo sapiens, UniProt P08172) | radioligand binding | CHO cells expressing human M2 receptor, cell homogenate | – | – | dissociation plateau | ~47% |
| CCCCCCCCCCCCCCCOC(=O)/C=C/c1cc(O)c(O)c(OC)c1 | Protein kinase C alpha type (PRKCA, Homo sapiens, UniProt P17252) | membrane translocation, immunoblotting | MDA-MB-231 | IC50, 30 min | reference: untreated | cytosolic PKC alpha | 16.6 ± 1.7% |
| Cn1c(=O)c2[nH]c(CCc3ccccc3)nc2n(C)c1=O | Progesterone receptor (PGR, Homo sapiens, UniProt P06401) | reporter gene, antagonist, MMTV-luciferase | T47D/A1-2 | 10 µM, 24 h, with: 5 nM progesterone | reference: maximal activity | remaining activity | 89% |
| CC1(C)CCN(Cc2ccc(C(=O)NC[C@]3(O)CCCN(c4cc(NCc5ccccc5)ncn4)C3)c(O)c2)CC1 | Rho-associated protein kinase 1 (ROCK1, Homo sapiens, UniProt Q13464) | kinase activity, radiometric | – | 10 µM, with: 10 µM ATP | – | remaining activity | 86% |
| O=c1c(-c2cnn(-c3ccc(Cl)cc3)c2)c(C(F)(F)F)oc2c(O)c(O)ccc12 | Cullin-1, in SCF-βTrCP2 complex (Homo sapiens, UniProt Q13616) | IκBα and β-catenin ubiquitination by SCF-βTrCP2, inhibitor | – | – | – | effective concentration range | ~30 µM |
| C=CC(=O)N1C[C@H](C)N(c2nc(OC[C@@]34CCCN3C[C@H](F)C4)nc3c(F)c(-c4ccc(F)c5sc(N)nc45)c(C(F)(F)F)cc23)C[C@H]1C | GTPase KRas, GppNHp-bound (KRAS, Homo sapiens, UniProt P01116, C118S/G12C) | MALDI-TOF MS | – | 15 min, GppNHp-loaded | – | covalent modification | > 90% |
| CCCCCCCC(=O)Nc1ccc(N(C)C)nc1C | Fatty-acid amide hydrolase 1 (FAAH, Homo sapiens, UniProt O00519) | enzyme activity, substrate | – | 50 µM, pH 8, 37 °C | – | specific activity | 210 pmol/min/µg |
| CC12CC3CC(C)(C1)CC(NC(=O)Nc1ccc(C(=O)N4CCC(NS(C)(=O)=O)CC4)cc1)(C3)C2 | EPHX2 | – | – | – | – | lipophilic ligand efficiency | 7.18 |
| CC(C)[C@H](NC(=O)[C@H](CCCCN)NC(=O)[C@H](C)NC(=O)[C@H](CC(N)=O)NC(=O)CNC(=O)[C@H](CCCNC(=N)N)NC(=O)[C@@H](NC(=O)[C@H](CCCCN)NC(=O)[C@@H](N)CO)[C@@H](C)O)C(=O)N[C@H](C(=O)NCC(=O)N[C@@H](CCCNC(=N)N)C(=O)N[C@@H](Cc1c[nH]c2ccccc12)C(=O)N[C@@H](CCCCN)C(=O)O)[C@@H](C)O | TPM1/ACTA1, with F-actin (Oryctolagus cuniculus, UniProt P58772+P68135) | binding, LSPR | F-actin-tropomyosin filament | pH 7.0 | – | koff | 0.041 ± 0.00886 s⁻¹ |
| C=CC1=C(C)c2cc3[n-]c(cc4nc(cc5[n-]c(cc1n2)c(C)c5C=C)C(C)=C4CCC(=O)O)c(CCC(=O)O)c3C.[Cl-].[Fe+3] | Coelenterazine h 2-monooxygenase (Renilla reniformis, UniProt P27652) | luciferase luminescence, inhibitor, compound added after translation | Renilla | – | – | lowest interfering concentration | > 20 µM |
| CCCCCCCCCCCCSc1nc2c([nH]1)c(=O)n(C)c(=S)n2C | Glucocorticoid receptor (Nr3c1, Rattus norvegicus, UniProt P06536) | reporter gene, antagonist, MMTV-luciferase | T47D/A1-2 | 10 µM, 24 h, with: 5 nM dexamethasone | reference: maximal activity | remaining activity | 97% |
| C[C@]12CCC(=O)C=C1CCC1C2CC[C@]2(C)C(c3cccnc3)=CCC12 (stereo partly shown) | Steroid 17-alpha-hydroxylase/17,20 lyase (CYP17A1, Homo sapiens, UniProt P05093) | enzyme activity | HEK293 expressing CYP17A1 | 1 nM, 3 h, with: [3H]pregnenolone | – | conversion to DHEA | 4.2% |
| CNc1ccccc1C(=O)O[C@H]1C[C@H](n2cnc3c(N)ncnc32)O[C@@H]1COP(=O)(O)OP(=O)(O)O | Unconventional myosin-Va (Gallus gallus, UniProt Q02440, D297C/G292C/I296C/S293C/V295G) | stopped-flow FRET, linear fit intercept | – | 10 °C, with: MgCl2 10 mM | – | dissociation rate constant | 1.76 ± 0.3 s⁻¹ |
| Cc1ncsc1-c1ccc(CNC(=O)[C@@H]2C[C@@H](O)CN2C(=O)[C@@H](NC(=O)COCCOCCOCCNC(=O)C[C@@H]2N=C(c3ccc(Cl)cc3)c3c(sc(C)c3C)-n3c(C)nnc32)C(C)(C)C)cc1 | BRD4/VHL, BD2; with elongins B/C (Homo sapiens, UniProt O60885+P40337, A384K/E383V/K378Q) | ITC | – | 25 °C | reference: binary Kd over ternary Kd | cooperativity | 4 |
| N#CCC(=O)N1CCN(C(=S)c2ccc(-c3cc(Cl)ccc3Cl)o2)CC1 | Atrial natriuretic peptide receptor 2 (NPR2, Homo sapiens, UniProt P20594) | HTRF, item: cGMP | HEK293 overexpressing GC-B | with: subthreshold CNP | reference: saturating CNP | Emax | 62% |
| CC1=C(/C=C/C(C)=C/C=C/C(C)=C/C=O)C(C)(C)CCC1 | Cyclic nucleotide-gated channel alpha-1 (CNGA1, Bos taurus, UniProt Q00194) | ion current, inhibitor, inside-out patch clamp | – | 400 nM, with: cGMP 2 mM | – | slow time constant of inhibition | 1670 s |
| Cc1nc(/N=N/c2cc3c(S(=O)(=O)O)cc([N+](=O)[O-])cc3cc2S(=O)(=O)O)c(COP(=O)(O)O)c(C=O)c1O | Coagulation factor XI (F11, Homo sapiens, UniProt P03951) | enzyme activity, inhibitor | – | pH 7.4, 37 °C, with: S-2366 substrate | – | maximal inhibition | 111 ± 15.6% |
| CCCCCCCCOP(=O)(Cc1ccccc1)O[C@@H]1O[C@H](CO)[C@@H](O)[C@H](O)[C@H]1F (stereo partly shown) | Lysosomal acid glucosylceramidase (GBA1, Homo sapiens, UniProt P04062) | enzyme activity, irreversible inhibitor | – | pH 5.5, 37 °C, with: 2,4-dinitrophenyl beta-D-glucopyranoside | – | kinact/Ki | 607 M⁻¹ s⁻¹ |
| [11CH3]Nc1ccc(-c2nc3ccc(O)cc3o2)cn1 | Amyloid-beta precursor protein (APP, Homo sapiens, UniProt P05067) | binding, PET, reference Logan | Alzheimer's disease patients, anterior cingulate cortex | – | reference: cerebellum | distribution volume ratio | 1.46 ± 0.14 |
| CCCC[C@H](C)/C=C(C)/C=C/C(=O)O | Transient receptor potential cation channel subfamily A member 1 (TRPA1, Homo sapiens, UniProt O75762, I860A/K868A) | calcium influx, fluorescence calcium | – | I860A+K868A mutant | reference: wild type | potency shift | 122 fold |
| COc1ccc(NC(=S)Nc2cccc3[nH]ccc23)cc1 | Alpha-synuclein (SNCA, Homo sapiens, UniProt P37840) | fibril formation, ThT fluorescence kinetics | – | 100 µM, α-syn 2 µM, plateau phase | reference: DMSO vehicle | maximum ThT fluorescence | 25 ± 2% |
| CCCCCCC(=O)Nc1ccc(OC)nc1C | Cocaine esterase (CES2, Homo sapiens, UniProt O00748) | substrate | – | 50 µM, pH 8, 37 °C, enzyme purity 4% | – | specific activity | 28 pmol/min/µg |
| O[C@H]1[C@H](O)[C@@H](O)[C@@H]2O[C@@H]2[C@@H]1O | Lysosomal acid glucosylceramidase (GBA1, Homo sapiens, UniProt P04062, R534H) | tryptophan fluorescence | – | pH 7.4, complex with inhibitor | – | emission maximum | 334 nm and 333 nm |
| CCCCCCCCCc1nc2ccccc2c(=O)n1N | Staphylococcus aureus membranes | di-8-ANEPPS fluorescence ratio | – | 40 µM | – | membrane dipole potential change | increased |

Repeated from above:
| SMILES | target | assay | test system | conditions | how to read | quantity | value |
| --- | --- | --- | --- | --- | --- | --- | --- |
| CC1=C(/C=C/C(C)=C/C=C/C(C)=C/C=O)C(C)(C)CCC1 | Cyclic nucleotide-gated channel alpha-1 (CNGA1, Bos taurus, UniProt Q00194) | ion current, inhibitor, inside-out patch clamp | – | 400 nM, with: cGMP 2 mM | – | slow time constant of inhibition | 1670 s |
| O=c1c(-c2cnn(-c3ccc(Cl)cc3)c2)c(C(F)(F)F)oc2c(O)c(O)ccc12 | Cullin-1, in SCF-βTrCP2 complex (Homo sapiens, UniProt Q13616) | IκBα and β-catenin ubiquitination by SCF-βTrCP2, inhibitor | – | – | – | effective concentration range | ~30 µM |
